# Experimental data from different studies.
# Compare with care: the assays were run in different laboratories. ± marks the error that the study gave.
# CXCR4: C-X-C chemokine receptor type 4 (CXCR4, Homo sapiens, UniProt P61073)
# Sequence of UniProt P61073 (whole entry, looked up): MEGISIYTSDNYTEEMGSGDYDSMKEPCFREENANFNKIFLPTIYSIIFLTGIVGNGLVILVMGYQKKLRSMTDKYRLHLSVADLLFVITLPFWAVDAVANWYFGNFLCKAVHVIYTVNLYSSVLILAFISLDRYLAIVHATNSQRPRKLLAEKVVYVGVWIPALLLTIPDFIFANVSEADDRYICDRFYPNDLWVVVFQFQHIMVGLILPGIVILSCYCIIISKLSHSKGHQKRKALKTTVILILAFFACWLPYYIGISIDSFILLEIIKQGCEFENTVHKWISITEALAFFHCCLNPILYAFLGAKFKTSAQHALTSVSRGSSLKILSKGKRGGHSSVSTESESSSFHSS
SMILES,target or system,test,system,conditions,how to read,endpoint,value
C=CCCCC(C)(NC(=O)[C@H](Cc1c[nH]cn1)NC(=O)[C@@H](N)CC(=O)O)C(=O)N[C@@H](CC(N)=O)C(=O)N1CCC[C@H]1C(=O)N[C@@H](CCC(N)=O)C(=O)N[C@H](C(=O)N[C@@H](CCCNC(=N)N)C(N)=O)[C@@H](C)CC (some centres unmarked),,,"Kunming mouse, male","subcutaneous, 5000 mg/kg",reference: PBS control,spleen coefficient,increased
CC(C)C[C@H](NC(=O)[C@H](CO)NC(=O)[C@@H](NC(=O)[C@@H]1CCCN1C(=O)[C@@H](N)CCCCN)C(C)C)C(=O)N[C@@H](CO)C(=O)N[C@@H](Cc1ccc(O)cc1)C(=O)N[C@@H](CCCNC(=N)N)C(=O)NCCCC[C@@H]1NC(=O)[C@H](CCCNC(=N)N)NC(=O)[C@H](Cc2ccc(O)cc2)NC(=O)[C@@H]2CCCN2C(=O)[C@@H](CCCCN)NC(=O)[C@H](CCCCN)NC(=O)[C@H](CCCNC(=N)N)NC(=O)[C@H](Cc2ccc(O)cc2)NC(=O)[C@@H](NC(=O)[C@H](Cc2ccc3ccccc3c2)NC(=O)[C@H](CCCNC(=N)N)NC(=O)[C@@H](N)CCCNC(=N)N)CSSC[C@@H](C(=O)N[C@@H](CCCNC(=N)N)C(=O)O)NC1=O,CXCR4,"ligand displacement, radioligand",,,,IC50,0.00222 µM
CC(C)C[C@@H]1NC(=O)[C@H](CCCN)NC(=O)[C@H](C(C)C)NC(=O)[C@@H]2CCCN2C(=O)[C@@H](Cc2ccccc2)NC(=O)[C@H](CC(C)C)NC(=O)[C@H](CCCN)NC(=O)[C@H](C(C)C)NC(=O)[C@@H]2CCCN2C(=O)[C@@H](Cc2ccccc2)NC1=O,human erythrocytes,,,,,HC10,> 15.6 µg/mL
CC(C)C[C@H](NC(=O)[C@H](CO)NC(=O)[C@@H](NC(=O)[C@@H]1CCCN1C(=O)[C@@H](N)CCCCN)C(C)C)C(=O)N[C@@H](CO)C(=O)N[C@@H](Cc1ccc(O)cc1)C(=O)NCCCC[C@H](NC(=O)[C@@H]1CSSC[C@H](NC(=O)[C@H](Cc2ccc3ccccc3c2)NC(=O)[C@H](CCCNC(=N)N)NC(=O)[C@@H](N)CCCNC(=N)N)C(=O)N[C@@H](Cc2ccc(O)cc2)C(=O)N[C@@H](CCCNC(=N)N)C(=O)N[C@@H](CCCCN)C(=O)N[C@H](CCCCN)C(=O)N2CCC[C@H]2C(=O)N[C@@H](Cc2ccc(O)cc2)C(=O)N[C@@H](CCCNC(=N)N)C(=O)N[C@@H](CCCNC(N)=O)C(=O)N1)C(=O)O,CXCR4,"ligand displacement, radioligand",,,,IC50,0.17 µM
O=C(O)COc1ccc(Br)cc1C=NNC(=O)Cc1ccccc1 (mixture of isomers),,refers to: AST,"mouse, serum","oral, 100 mg/kg, 48 h, safety assessment",,serum enzyme activity,36.4 ± 2.57 IU/L
CC[C@H](C)[C@@H]1NC(=O)[C@H](C(C)C)NC(=O)[C@H](Cc2ccccc2)NC(=O)[C@H](Cc2ccccc2)NC(=O)[C@@H]2CCCN2C(=O)[C@@H]2CCCN2C(=O)[C@H]([C@@H](C)CC)NC(=O)[C@H](CC(C)C)NC(=O)[C@H](CC[S+](C)[O-])NC1=O (some centres unmarked),A-375,LDH release,,"500 µM, 48 h",reference: DMSO,cytotoxicity,32%
CC(C)C[C@H](NC(=O)[C@@H](NC(=O)[C@H](CCONC(=N)N)NC(=O)OCc1ccccc1)C1CCCCC1)[C@@H](O)CC(=O)NCCc1ccccc1,Plasmodium falciparum,"parasite growth, LDH",PMV T371P-HA CRISPR mutant,72 h,,EC50,0.823 µM
N=C(N)N[C@@H]1C[C@@H](C(=O)N[C@@H](Cc2ccc(O)cc2)C(N)=O)N(C(=O)CN(CCNC(=O)[C@H](CCCCNC(=O)c2cnccn2)NC(=O)[C@H](CCCCNC(=O)[C@H]2C[C@@H](N)CN2C(=O)CN(CCNC(=O)CN(CCN)C(=O)Cn2cnc3c(=O)[nH]c(N)nc32)C(=O)Cn2cnc3c(=O)[nH]c(N)nc32)NC(=O)[C@H]2C[C@@H](N)CN2C(=O)CN(CCNC(=O)CN(CCN)C(=O)Cn2cnc3c(=O)[nH]c(N)nc32)C(=O)Cn2cnc3c(=O)[nH]c(N)nc32)C(=O)Cn2cnc3c(=O)[nH]c(N)nc32)C1,HEK-293T transfected GagPol-RRE reporter,"Rev-RRE nuclear export reporter, inhibitor, refers to: p24",,48 h,,IC50,15.4 µM
